Results collected from several papers.
Lines come from different studies, so protocols differ. ± gives the spread as reported.
BCHE: Cholinesterase (BCHE, Homo sapiens, UniProt P06276)
UniProt P06276, sequence (whole entry, looked up): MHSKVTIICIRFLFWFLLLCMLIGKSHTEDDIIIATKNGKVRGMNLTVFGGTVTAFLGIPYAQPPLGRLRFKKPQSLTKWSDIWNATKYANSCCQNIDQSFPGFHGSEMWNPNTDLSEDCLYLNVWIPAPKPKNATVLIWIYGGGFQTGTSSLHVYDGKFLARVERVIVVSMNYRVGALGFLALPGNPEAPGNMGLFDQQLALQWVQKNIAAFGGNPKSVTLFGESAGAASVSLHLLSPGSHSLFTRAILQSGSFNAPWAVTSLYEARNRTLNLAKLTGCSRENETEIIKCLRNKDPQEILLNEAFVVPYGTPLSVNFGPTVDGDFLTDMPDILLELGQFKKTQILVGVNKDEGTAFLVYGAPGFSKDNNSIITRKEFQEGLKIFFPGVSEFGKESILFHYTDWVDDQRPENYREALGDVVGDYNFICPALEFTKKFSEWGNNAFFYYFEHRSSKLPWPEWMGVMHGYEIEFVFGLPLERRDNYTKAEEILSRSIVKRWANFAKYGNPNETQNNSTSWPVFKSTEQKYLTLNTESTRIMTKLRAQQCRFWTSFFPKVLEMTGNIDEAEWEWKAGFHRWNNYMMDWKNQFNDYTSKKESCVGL
gag-pol integrase: Gag-Pol polyprotein, integrase (gag-pol, Human immunodeficiency virus 1, UniProt P12497)
UniProt P06401, sequence (whole entry, looked up): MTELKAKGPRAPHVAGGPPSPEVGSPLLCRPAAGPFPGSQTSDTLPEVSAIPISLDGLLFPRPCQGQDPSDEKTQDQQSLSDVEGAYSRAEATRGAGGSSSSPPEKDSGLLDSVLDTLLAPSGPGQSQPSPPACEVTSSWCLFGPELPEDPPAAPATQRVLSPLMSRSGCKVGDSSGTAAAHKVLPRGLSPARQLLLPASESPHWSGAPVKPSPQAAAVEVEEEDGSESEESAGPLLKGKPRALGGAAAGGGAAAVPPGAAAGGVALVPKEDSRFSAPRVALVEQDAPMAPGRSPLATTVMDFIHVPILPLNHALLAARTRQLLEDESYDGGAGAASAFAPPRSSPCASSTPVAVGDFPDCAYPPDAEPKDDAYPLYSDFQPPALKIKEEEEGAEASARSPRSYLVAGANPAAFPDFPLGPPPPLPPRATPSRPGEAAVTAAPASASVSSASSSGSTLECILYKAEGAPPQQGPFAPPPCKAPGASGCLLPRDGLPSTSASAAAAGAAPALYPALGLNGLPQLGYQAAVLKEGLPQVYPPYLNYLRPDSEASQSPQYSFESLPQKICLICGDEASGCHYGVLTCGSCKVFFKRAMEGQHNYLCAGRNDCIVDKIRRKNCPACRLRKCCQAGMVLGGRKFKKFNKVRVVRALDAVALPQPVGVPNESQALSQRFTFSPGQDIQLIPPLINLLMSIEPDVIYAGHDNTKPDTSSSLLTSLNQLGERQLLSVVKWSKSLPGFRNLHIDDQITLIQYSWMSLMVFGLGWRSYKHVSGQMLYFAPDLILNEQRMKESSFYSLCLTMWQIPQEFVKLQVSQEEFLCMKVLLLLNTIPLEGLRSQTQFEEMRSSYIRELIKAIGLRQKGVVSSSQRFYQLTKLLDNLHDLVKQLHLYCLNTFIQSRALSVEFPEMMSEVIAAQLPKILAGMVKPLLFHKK
UniProt O75116, sequence (whole entry, looked up): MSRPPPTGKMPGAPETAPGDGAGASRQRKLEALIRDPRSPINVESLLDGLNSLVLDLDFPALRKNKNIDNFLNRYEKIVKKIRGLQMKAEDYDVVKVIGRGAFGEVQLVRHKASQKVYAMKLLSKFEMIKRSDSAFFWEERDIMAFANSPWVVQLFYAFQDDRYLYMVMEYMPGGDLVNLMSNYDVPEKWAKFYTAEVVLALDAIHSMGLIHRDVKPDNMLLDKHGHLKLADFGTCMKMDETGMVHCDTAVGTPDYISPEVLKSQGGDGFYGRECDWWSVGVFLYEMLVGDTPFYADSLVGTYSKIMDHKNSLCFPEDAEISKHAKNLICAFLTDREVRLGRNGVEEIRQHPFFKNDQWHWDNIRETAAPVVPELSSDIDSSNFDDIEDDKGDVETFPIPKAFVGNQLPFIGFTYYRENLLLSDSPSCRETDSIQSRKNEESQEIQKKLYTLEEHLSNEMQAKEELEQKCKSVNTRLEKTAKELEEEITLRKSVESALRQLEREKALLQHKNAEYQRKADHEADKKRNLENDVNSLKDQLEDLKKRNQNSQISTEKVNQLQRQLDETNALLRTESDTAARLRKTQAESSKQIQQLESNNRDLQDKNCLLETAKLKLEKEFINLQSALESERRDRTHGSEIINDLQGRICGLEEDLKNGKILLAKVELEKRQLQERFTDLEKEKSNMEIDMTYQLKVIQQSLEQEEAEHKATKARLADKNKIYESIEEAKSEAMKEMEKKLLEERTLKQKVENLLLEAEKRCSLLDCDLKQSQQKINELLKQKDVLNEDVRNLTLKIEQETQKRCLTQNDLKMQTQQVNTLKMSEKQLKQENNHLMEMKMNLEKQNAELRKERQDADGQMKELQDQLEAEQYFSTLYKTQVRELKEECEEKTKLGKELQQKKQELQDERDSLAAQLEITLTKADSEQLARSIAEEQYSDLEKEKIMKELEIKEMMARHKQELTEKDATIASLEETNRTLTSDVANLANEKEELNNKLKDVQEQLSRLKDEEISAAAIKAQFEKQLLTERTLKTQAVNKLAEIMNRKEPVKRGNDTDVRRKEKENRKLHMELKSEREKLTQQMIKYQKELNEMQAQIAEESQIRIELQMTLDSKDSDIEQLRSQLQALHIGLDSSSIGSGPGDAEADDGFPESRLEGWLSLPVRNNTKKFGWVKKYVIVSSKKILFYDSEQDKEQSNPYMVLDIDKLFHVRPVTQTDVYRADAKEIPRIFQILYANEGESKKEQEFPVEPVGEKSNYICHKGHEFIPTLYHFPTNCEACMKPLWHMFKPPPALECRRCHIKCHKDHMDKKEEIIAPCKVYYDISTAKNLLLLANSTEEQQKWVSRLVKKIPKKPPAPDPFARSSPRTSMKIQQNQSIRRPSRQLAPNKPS
UniProt P11142, sequence (whole entry, looked up): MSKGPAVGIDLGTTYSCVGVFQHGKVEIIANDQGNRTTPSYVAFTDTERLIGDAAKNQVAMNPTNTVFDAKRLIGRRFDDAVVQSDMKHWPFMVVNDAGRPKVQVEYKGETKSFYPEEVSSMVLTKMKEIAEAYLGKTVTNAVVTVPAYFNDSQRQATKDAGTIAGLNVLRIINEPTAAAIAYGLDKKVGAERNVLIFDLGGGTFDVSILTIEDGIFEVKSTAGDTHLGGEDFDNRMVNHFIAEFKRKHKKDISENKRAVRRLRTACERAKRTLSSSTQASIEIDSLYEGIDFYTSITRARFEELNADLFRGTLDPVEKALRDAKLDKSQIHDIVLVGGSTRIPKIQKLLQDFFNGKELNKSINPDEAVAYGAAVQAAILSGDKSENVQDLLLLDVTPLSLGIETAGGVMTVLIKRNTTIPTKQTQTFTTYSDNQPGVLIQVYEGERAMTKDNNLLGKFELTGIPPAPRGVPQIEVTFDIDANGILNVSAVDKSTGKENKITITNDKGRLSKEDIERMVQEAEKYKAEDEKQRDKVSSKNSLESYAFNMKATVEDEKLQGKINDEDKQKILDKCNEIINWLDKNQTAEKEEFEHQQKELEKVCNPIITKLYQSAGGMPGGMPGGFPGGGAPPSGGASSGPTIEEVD
UniProt P20936, sequence (whole entry, looked up): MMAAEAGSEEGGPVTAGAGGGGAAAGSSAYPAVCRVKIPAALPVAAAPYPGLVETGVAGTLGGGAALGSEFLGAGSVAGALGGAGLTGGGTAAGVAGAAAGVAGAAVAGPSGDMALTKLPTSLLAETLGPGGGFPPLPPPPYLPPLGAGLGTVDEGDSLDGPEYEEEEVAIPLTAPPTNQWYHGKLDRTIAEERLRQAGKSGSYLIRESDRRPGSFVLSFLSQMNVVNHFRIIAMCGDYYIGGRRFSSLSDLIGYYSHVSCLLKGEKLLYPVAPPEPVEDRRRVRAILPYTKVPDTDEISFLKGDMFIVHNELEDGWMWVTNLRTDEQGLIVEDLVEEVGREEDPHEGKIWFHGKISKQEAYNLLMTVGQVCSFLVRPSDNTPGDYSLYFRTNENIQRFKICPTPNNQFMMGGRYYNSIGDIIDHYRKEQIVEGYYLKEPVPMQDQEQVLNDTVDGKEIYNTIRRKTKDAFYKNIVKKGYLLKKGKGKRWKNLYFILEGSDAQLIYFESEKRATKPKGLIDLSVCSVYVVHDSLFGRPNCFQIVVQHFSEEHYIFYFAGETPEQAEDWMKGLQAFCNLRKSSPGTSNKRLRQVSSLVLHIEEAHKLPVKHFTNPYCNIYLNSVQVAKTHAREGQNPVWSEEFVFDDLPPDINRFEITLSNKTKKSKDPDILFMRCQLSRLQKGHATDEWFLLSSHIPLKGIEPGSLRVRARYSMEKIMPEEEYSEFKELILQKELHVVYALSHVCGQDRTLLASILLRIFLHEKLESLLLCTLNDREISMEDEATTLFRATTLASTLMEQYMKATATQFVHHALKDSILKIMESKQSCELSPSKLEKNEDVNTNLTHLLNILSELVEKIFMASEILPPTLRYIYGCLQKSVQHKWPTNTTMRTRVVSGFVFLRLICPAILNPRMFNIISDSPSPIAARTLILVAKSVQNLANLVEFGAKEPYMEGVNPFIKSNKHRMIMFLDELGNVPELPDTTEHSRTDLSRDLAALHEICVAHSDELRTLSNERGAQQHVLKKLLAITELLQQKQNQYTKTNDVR
UniProt P35462, sequence (whole entry, looked up): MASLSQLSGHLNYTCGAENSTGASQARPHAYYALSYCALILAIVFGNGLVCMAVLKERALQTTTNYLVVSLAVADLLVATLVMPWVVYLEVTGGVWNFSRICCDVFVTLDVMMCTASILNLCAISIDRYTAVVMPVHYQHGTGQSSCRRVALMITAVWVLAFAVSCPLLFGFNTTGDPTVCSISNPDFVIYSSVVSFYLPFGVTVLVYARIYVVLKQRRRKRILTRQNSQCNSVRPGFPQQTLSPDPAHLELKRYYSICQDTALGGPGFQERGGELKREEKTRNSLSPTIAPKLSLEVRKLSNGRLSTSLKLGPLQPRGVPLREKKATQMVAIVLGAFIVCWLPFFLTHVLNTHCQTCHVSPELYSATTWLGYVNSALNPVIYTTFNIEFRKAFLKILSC

COc1cc(Nc2ncc(F)c(Nc3ccc4c(n3)NC(=O)C(C)(C)O4)n2)cc(OC)c1OC — IC50 (histone deacetylase; enzyme activity, inhibitor): > 10 µM
C[C@H]1CN(c2n[nH]c3nc(N[C@H]4CC[C@H](NS(=O)(=O)CCC(F)(F)F)CC4)ncc23)CCO1 — IC50 (Rho-associated protein kinase 2 (ROCK2, Homo sapiens, UniProt O75116); biochemical): ≥ 20 µM
COc1ncccc1-c1cnn2ccc(N3CCN(C(=O)OC(C)C)CC3)nc12 — IC50 (Progesterone receptor (PGR, Homo sapiens, UniProt P06401); liability screen): 94 µM
CC(C)OC(=O)c1cc2c(OCC(O)CNC(C)(C)C)cccc2[nH]1 (centres unmarked) — IC50 (BCHE; inhibitor): 4.91 ± 0.51 µM
Cc1cc(C)nc(N/N=C/c2cccc(O)c2)n1 — IC50 (Gag-Pol polyprotein, integrase with LEDGF/p75 (gag-pol, Human immunodeficiency virus 1, UniProt P12497); LEDGF/p75-integrase interaction, inhibitor, AlphaScreen): > 50 µM
OC[C@H]1O[C@@H](n2cnc3cncnc32)[C@H](O)[C@@H]1O — Kd (Heat shock cognate 71 kDa protein, nucleotide-binding domain (HSPA8, Homo sapiens, UniProt P11142); binding, SPR; nucleotide-binding domain, residues 1-381): > 1000 µM
CN[C@@H](C)[C@H]1[C@H](O)C[C@@]2(C)[C@@H]3CC[C@H]4C(C)(C)[C@@H](NC)CC[C@@]45C[C@@]35CC[C@]12C — IC50 (BCHE; inhibitor): 3.34 ± 0.17 µM
Cc1[nH]c(C)c(S(=O)(=O)Nc2ccc(S(F)(F)(F)(F)F)cc2)c1C(=O)N1CCC(F)(F)C1 — Kb (D(3) dopamine receptor (DRD3, Homo sapiens, UniProt P35462); allosteric modulator, radioligand binding; together with: pramipexole): 4.6 µM
CCN(CC)c1ccc(/C=C2\CCC(/C=N/N=C/c3cccnc3)=C2N2CCOCC2)cc1 — IC50 (gag-pol integrase; strand transfer activity, inhibitor; wild-type integrase): > 100 µM
CN1C2CCCC1CC(NC(=O)c1nn(C)c3ccccc13)C2 (centres unmarked) — Kd (Soluble acetylcholine receptor (Aplysia californica, UniProt Q8WSF8, D181E/K160T/Q74R/S111E/V159L); homologous radioligand competition): 0.359 ± 0.013 µM
C=CC/N=c1/scc(-c2ccccc2Br)n1/N=C/c1ccccn1 — IC50 (gag-pol integrase; 3'-processing activity, inhibitor; wild-type integrase): > 100 µM
CCCCOP(=O)(O)C(C)=O — Ki (dxs (Pseudomonas aeruginosa, UniProt Q9KGU7, R106A); inhibitor): 20.7 ± 0.8 µM
CC[C@H](C)[C@H](NC(=O)[C@H](CCC(N)=O)NC(=O)[C@H](Cc1c[nH]cn1)NC(=O)c1ccc2c(c1)C(=O)OC21c2ccc(N(C)C)cc2Oc2cc(N(C)C)ccc21)C(=O)N[C@@H](CO)C(=O)N[C@@H](CC(C)C)C(=O)N[C@@H](CC(=O)O)C(=O)N[C@@H](CC(N)=O)C(=O)N1CCC[C@H]1C(=O)N[C@@H](CC(=O)O)C(=O)N[C@@H](Cc1ccc(OP(=O)(O)O)cc1)C(=O)N[C@@H](CCC(N)=O)C(=O)N[C@@H](CCC(N)=O)C(=O)N[C@@H](CC(=O)O)C(=O)N[C@@H](Cc1ccccc1)C(=O)N[C@@H](Cc1ccccc1)C(=O)N1CCC[C@H]1C(=O)N[C@@H](CCCCN)C(=O)N[C@@H](CC(=O)O)C(=O)O — Kd (Ras GTPase-activating protein 1, SH2 domains (RASA1, Homo sapiens, UniProt P20936); binding): 1.14 µM
COc1c(Cl)cc(Cl)cc1/C=N/NC(=O)c1ccncc1 — IC50 (gag-pol integrase; strand transfer activity, inhibitor; wild-type integrase): > 100 µM

For quick reference, copied from above:
CCN(CC)c1ccc(/C=C2\CCC(/C=N/N=C/c3cccnc3)=C2N2CCOCC2)cc1 — IC50 (gag-pol integrase; strand transfer activity, inhibitor; wild-type integrase): > 100 µM
